Experimental data collected from several papers.
Numbered parts are unrelated; each lists some results of a single study.

Sample 1
Target: RING finger protein unkempt homolog, zinc fingers 1-6, GST-SBP tag (UNK, Homo sapiens, UniProt Q9C0B0, residues 30-357)
Sequence of UniProt Q9C0B0 (30-357, looked up): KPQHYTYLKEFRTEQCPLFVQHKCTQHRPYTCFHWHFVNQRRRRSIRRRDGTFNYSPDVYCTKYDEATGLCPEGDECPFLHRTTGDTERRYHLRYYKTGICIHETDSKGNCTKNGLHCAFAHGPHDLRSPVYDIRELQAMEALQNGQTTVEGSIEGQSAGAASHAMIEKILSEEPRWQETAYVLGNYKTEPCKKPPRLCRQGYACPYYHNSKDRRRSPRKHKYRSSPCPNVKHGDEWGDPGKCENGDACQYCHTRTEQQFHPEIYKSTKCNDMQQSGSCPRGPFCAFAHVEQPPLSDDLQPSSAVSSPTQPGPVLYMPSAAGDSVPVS
Method: RNA Bind-n-Seq
Form: RNA
Medium: in vitro
Concentration: not given
Notes: RNA with constant flanks, human-mouse chimeric sites, ends assumed
Reference: input RNA pool
Reading: higher = stronger binding
`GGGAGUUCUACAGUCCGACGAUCGAGUCGAGCAAACUUGAAACAAUUCGUUAUCUUGCAGCCUCAGUGUUCACUUGCUUGGCGAUAGCAUUGGGGUUUUAUAUAGAUUCUAAGGAGAACUGACGAUGAUGCUGCCGCUGCUGCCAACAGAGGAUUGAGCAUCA` gave a bound/input enrichment of 0.265 ratio.
For `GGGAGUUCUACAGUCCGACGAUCGGAAGUACAAUGAUGGAGAUUGAUGGUGACAAAGGCAAGCAGGGCGGGCCCACCUACUACAUAGACACUAAUGCUCUCCGCGUGCCCAGGGAGAACAUGGAGGCCAUUUCACCUCUAAAGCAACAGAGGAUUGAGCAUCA`, the bound/input enrichment was 0.768 ratio.
With `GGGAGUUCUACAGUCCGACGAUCAUGGAGAAGGAUUCUCUGCCCCGCUUUGUGCGCUCUGAAUUUUAUAAGGAGUUAAUCAAGUAGUCAUUUAGCCAGGCUUCCAAAAGUUGCCCUGUGAGUUGAGUUACAUCCUUUGUAGCACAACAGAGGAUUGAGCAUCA` the bound/input enrichment was 1.06 ratio.
`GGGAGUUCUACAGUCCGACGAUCACACAAUAUGAGACCAACAGCUUGGACUUCAAAGUUGGGGCAGAUGGGACAGUCUUCGCCACCCGGGAGCUGCAGGUCCCCUCCGAGCAGGUGGCGUUCACGGUGACUGCGCGGGAAAGCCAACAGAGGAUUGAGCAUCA` gave a bound/input enrichment of 0.255 ratio.
`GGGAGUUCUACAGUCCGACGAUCGCUCUUGGGAAUGUAAUCAGCGCCUUGGGGGACAAGAGCAAGAGAGCCACCCAUGUCCCCUAUAGAGACUCUAAGCUGACAAGACUCUUGCAGGAUUCCCUUGGGGGUAAUAGCCAAACCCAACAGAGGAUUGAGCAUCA` has a bound/input enrichment of 0.172 ratio.
For `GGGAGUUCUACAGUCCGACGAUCGUAGCUGGGACUACAGAAAUGCUGGUAAUUUCAGUCACUUGCUGAUGACUUCUGAUGUCCCAGCAAAUGUUGGCAUUCACUGCAAUAGAGAAGAUACUUCUGAGGACCCACGUCUAAGGUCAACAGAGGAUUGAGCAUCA`, the bound/input enrichment was 0.162 ratio.
With `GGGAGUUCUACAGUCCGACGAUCCUGGCACUCUAUCAGAUAUAUUAAUUUUUUAAUGUAGAUGUAAUUUUAAAAAUGAAUGGCUACUUUACACGUUUAACUAGGCUCUUACUAUAUAUGUGUACAUAUGUAUAUAUAUAUAUACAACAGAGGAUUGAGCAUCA` the bound/input enrichment was 3.08 ratio.
`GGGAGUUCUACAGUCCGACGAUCACCUCCCCCUCCCGCCUCACCCCACCCCCGCUUUUUGGAAAGUUUUUGGCGUUUCUUUUCCUUCCCCAGUUAGAAUUAUUACAGUUUCCCCCGCAAGGGUCUAUCGAAGGGCUUGACGGACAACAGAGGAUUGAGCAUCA` has a bound/input enrichment of 9.97 ratio.
With `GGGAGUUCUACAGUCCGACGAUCGGGGAGAAACCUUACGAGUGUGUGCAGUGUGGGAAAUCGUAUAGUCAGAGCUCAAACCUCUUCAGACAUCAGAGAAGACACAAUGCAGAAAAACUUUUGAAUGUUGUGAAGGUUUAAGAACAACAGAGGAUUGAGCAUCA` the bound/input enrichment was 0.737 ratio.
For `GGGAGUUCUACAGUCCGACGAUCAGAGAUAAGACAUCCAGGAACAUGCGAGGGUCACGGAUGAAUGGGUUGCCUAGCCCCACUCACAGCGCCCACUGUAGCUUCUACCGAACCAGAACCUUGCAGGCACUGAGUAAUGAGAAGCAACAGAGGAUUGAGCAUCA`, the bound/input enrichment was 0.224 ratio.
`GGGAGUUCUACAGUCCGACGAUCCAGUCCCCGUGUCCCAGUGCAGGACGAGAACAUGGACAACUCAAAGCGGACCCUCUACUGUAGUUGAUGAUUCUCGAAAUGUGCUAUUAUUGUUUGUCUUUUUUUUUUUUUUUUUAAAGACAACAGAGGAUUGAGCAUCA` has a bound/input enrichment of 0.63 ratio.

Sample 2
Organism: Saccharomyces cerevisiae
Observed: binding
Method: competitive growth deep sequencing
Form: peptide
Strain: cyclin D3-Cln2 fusion strain
Concentration: concentration not given
Notes: peptide tiling library
Reading: direction not given
For `SPPRGRRLFPPGPAGF`, “growth enrichment score” read -0.688.
For `LKGRRLVFDN`, “growth enrichment score” read 0.624.
`RVSGLLSWTLSRVLWL` — result for “growth enrichment score”: -0.143.
Under “growth enrichment score”, `SMTDFYHSKRRLIFSK` is recorded as -1.34.
For `RRRIKLPESDSSED`, “growth enrichment score” read 0.353.
Under “growth enrichment score”, `GFGFLLFICKLTF` is recorded as -0.74.
Under “growth enrichment score”, `NSMKELNFSHLPSNSV` is recorded as -0.146.
For `TTTTSPRTPPPLTVQD`, “growth enrichment score” read 0.666.
Under “growth enrichment score”, `KRNLLNEFDRII` is recorded as -0.227.
`KVKRRLDLDIDGLQKE` — result for “growth enrichment score”: 0.813.
`NEGVSNAVRRSLYIRD`: “growth enrichment score” -1.18.
`RQVRRDLFAF` — result for “growth enrichment score”: -0.739.

Sample 3
Target: Interferon regulatory factor 7, full length, phosphomimetic (IRF7, Homo sapiens, UniProt Q92985, residues 1-503, S471D/S472D/S475D/S476D/S477D/S483D/S484D/S487D)
Sequence of UniProt Q92985 (whole entry, unmodified, looked up): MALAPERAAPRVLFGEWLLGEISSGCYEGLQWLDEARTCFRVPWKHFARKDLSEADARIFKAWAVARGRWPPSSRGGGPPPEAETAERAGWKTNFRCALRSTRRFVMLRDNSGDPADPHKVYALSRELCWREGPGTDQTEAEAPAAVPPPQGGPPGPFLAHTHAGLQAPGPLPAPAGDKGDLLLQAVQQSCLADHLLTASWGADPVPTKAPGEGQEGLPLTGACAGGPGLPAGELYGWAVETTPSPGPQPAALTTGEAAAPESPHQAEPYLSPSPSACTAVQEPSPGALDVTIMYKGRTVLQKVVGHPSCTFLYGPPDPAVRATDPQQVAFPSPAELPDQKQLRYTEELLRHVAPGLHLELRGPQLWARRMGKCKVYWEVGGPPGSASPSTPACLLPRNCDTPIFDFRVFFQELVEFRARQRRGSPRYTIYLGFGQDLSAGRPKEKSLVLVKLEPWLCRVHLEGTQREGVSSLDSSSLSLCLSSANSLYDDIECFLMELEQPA
Method: protein-binding microarray
Form: double-stranded DNA, one strand shown
Medium: in vitro
Concentration: 2200 nM top
Notes: 60-bp whole probe
Together with: salmon DNA 0.4 mg/ml
Reference: random background probes
Reading: higher = stronger binding
Constant ends, left off below: GCCTAGCAC … GTCTTGATTCGCTTGACGCTGCTG
`TTAGGTCTCCTTCTTCTTTAGTGCTAG`: “fitted relative affinity” 0.911 z-score.
`TTACGTTTCGGACTGGGTTAGTGCTAG` — result for “fitted relative affinity”: 4.61 z-score.
For `TTCTTTATGTACTCTCTCCATGTGCTA`, “fitted relative affinity” read 1.62 z-score.
For `GACGGTATCGGGTTTCGGGACGTGCTA`, “fitted relative affinity” read 1.76 z-score.
Under “fitted relative affinity”, `GACGATATCACTTTCGAGACGTGCTAG` is recorded as 5.03 z-score.
`TTAGGTTTCGTCTATCGGTTAGTGCTA`: “fitted relative affinity” 3.44 z-score.
`GACGGTATCCTTCCCCTGACGTGCTAG` — result for “fitted relative affinity”: 0.95 z-score.
`CACGGTTCCGGTTTCGGGACGTGCTAG` — result for “fitted relative affinity”: 5.55 z-score.
For `GACGGTTTCGACCTTCGGGACGTGCTA`, “fitted relative affinity” read 4.28 z-score.
For `TTAGATATCAGTCCCGATTAGTGCTAG`, “fitted relative affinity” read 0.675 z-score.
`GACGGTTTCGGATATCGGGACGTGCTA` — result for “fitted relative affinity”: 3.57 z-score.
For `GTAGATATCAGTTTCGATTAGTGCTAG`, “fitted relative affinity” read 6.06 z-score.
For `TTAGATATCCGGTTTCGATTAGTGCTA`, “fitted relative affinity” read 4.57 z-score.
For `GAGGGTCTCCTTTTCCTGACGTGCTAG`, “fitted relative affinity” read 0.602 z-score.
`TTAGGACTGCTTCTCCTTTGGTGCTAG`: “fitted relative affinity” 0.657 z-score.
Under “fitted relative affinity”, `TTAGATATCAGTCTCGATTGGTGCTAG` is recorded as 0.8 z-score.
Under “fitted relative affinity”, `TTAGGTCCCCTTCTCCTTTAGTGCTAG` is recorded as 1.32 z-score.
`GACGATCTTAGACTGGAGACGTGCTAG` — result for “fitted relative affinity”: -0.109 z-score.
For `GACGGTTTCGACTTTCAGGACGTGCTA`, “fitted relative affinity” read 7.14 z-score.
`GACGAACGGGGGTATCGAGACGTGCTA`: “fitted relative affinity” 0.783 z-score.
Under “fitted relative affinity”, `GACGGACTGGGACTGGTGACGTGCTAG` is recorded as -0.737 z-score.
For `TTAGGTTTCGGTTCCGGTTAGTGCTAG`, “fitted relative affinity” read 11.3 z-score.
Under “fitted relative affinity”, `TTTGGTTTCGGTCTCGGTTAGTGCTAG` is recorded as 7.97 z-score.
Under “fitted relative affinity”, `GACGATCTCAGTCTCAAGACGTGCTAG` is recorded as 0.124 z-score.
For `TTGTGTGTGTGTTTGTGTGTGTGCTAG`, “fitted relative affinity” read 1.34 z-score.

Sample 4
Target: Ras GTPase-activating protein-binding protein 1, RRM domain (G3BP1, Homo sapiens, UniProt Q13283)
Sequence of UniProt Q13283 (whole entry, looked up): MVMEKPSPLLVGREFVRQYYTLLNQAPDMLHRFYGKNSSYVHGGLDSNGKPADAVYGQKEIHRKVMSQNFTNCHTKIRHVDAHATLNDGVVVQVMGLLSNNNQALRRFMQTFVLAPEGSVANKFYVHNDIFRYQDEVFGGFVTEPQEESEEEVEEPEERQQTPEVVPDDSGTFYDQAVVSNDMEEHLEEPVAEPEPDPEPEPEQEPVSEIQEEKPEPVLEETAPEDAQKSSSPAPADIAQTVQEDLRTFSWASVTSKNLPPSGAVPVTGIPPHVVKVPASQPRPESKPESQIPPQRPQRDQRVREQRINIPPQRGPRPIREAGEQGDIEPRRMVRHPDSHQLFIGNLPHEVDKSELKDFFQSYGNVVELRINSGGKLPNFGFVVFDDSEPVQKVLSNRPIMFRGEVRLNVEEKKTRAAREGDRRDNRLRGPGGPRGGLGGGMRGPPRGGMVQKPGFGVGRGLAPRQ
Method: RNA Bind-n-Seq
Form: RNA
Medium: in vitro
Concentration: 1 µM
Notes: whole 134-nt RNA, ends assumed
Together with: 150 mM KCl
Reference: input library
Reading: higher = stronger binding
The log2 enrichment of `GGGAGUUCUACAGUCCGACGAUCCACAGACAACACGCACCCACACAUACACAGAGGGAAGGGGUUGGGAUGGGGACAGGGUGCACAGCAGGGCGGGGUAGGACCCCAGCCCCUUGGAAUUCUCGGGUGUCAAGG` is reported as -0.0395.
For `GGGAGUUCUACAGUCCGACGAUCAAGUCCUGUGCUACACAUCGUAUGUACCGAAUCGGGGAAAAGGAAAAGGGGAAAAGGAAAGUAUUAUGUUACGCCGUUCGGAUCUGCACUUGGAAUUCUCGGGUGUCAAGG`, the log2 enrichment was -0.12.
With `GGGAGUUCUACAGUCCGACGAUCUCUCUCUCUUUCCCUCUAGGGUCACAUCUCCCAGGAAGAUCUCACUUCCCCACAGAAGCUCUUGGCCUGGCCUCCUGCAGUGCCACGCUCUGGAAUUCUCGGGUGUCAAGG` the log2 enrichment was 0.219.
The log2 enrichment of `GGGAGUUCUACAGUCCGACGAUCCAAGUCCUGUGCUACACAUCGUAUGUACCGAAUCGGGGUUUGGUUUGGGUUUGGGGAAAGUAUUAUGUUACGCCGUUCGGAUCUGCACUUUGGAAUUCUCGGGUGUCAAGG` is reported as -0.343.
For `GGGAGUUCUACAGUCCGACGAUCCACAGACAACACGCACCCACACAGACACAGAGGGAAGGGGUUGGGAUGGGGACAGGGUGCACAGCAGGGCGGGGUAGGACCAAAGCCCCUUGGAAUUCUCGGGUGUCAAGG`, the log2 enrichment was -0.228.
`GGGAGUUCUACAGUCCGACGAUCAAGUCCUGUGCUACACAUCGUAUGUACCGAAUCGGGGUGGGGUGGGGAAAAAGGGGAAAGUAUUAUGUUACGCCGUUCGGAUCUGCACUUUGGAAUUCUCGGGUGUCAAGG` gave a log2 enrichment of 0.503.
`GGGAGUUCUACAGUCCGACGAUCUGUGCUACACAUCGUAUGUACCGAAUCGGGGAAAAAAAGGGGUUUUUUUGGGGAAAAAGGGGAAAGUAUUAUGUUACGCCGUUCGGAUCUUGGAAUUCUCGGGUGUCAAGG` gave a log2 enrichment of 1.15.
For `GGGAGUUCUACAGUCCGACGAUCUAACUUUAGAGGAGGAUCUGAUGGAUAUGGCAGUGGACGUGGAUUUGGGGAUUGCUAUAAUGGGUAUGGAGGAGGACCUGGAGGUGGCAAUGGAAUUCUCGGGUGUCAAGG`, the log2 enrichment was -0.316.
With `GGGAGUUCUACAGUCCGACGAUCGUAGCUGCUCCAGUGGGCCCAGUGGGCCCCACUCCUACAGUUUUGCCCAUGGGAGCCCCUGUUCCCCGGCCUCGUGGUCCCCCACCGCCCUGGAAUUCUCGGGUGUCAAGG` the log2 enrichment was -0.396.
`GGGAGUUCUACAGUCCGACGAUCUCCUGUGCUACACAUCGUAUGUACCGAAUCGGUUUUUUUGGUUUUUUUGGUUUUUUUGGAAAGUAUUAUGUUACGCCGUUCGGAUCUGCAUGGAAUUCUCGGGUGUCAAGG` gave a log2 enrichment of -0.0918.
With `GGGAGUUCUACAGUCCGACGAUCGUCCUGUGCUACACAUCGUAUGUACCGAAUCGGGGAAAAAGGGGAAAGGGGAAAGGGGAAAGUAUUAUGUUACGCCGUUCGGAUCUGCACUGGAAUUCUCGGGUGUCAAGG` the log2 enrichment was 1.64.
For `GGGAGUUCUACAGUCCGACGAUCUAACUUUAGAGGAGGAUCUGAUGGAUAUGGCAGUGGACGUGGAUUUGGGGAUGGCUAUUAUGGGUAUGGAGGAGGACCUGGAGGUGGCAAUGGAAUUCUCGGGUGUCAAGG`, the log2 enrichment was -0.444.
With `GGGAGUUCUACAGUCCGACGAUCCUCAAGUCCUGUGCUACACAUCGUAUGUACCGAAUCGGUUGGGGUUGGUUGGGGAAAGUAUUAUGUUACGCCGUUCGGAUCUGCACUUCCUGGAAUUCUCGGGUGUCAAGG` the log2 enrichment was 0.184.
The log2 enrichment of `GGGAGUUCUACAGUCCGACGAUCGUCCUGUGCUACACAUCGUAUGUACCGAAUCAAACCCCCCCAAACCCCCAAAUUUAAAAAAGUAUUAUGUUACGCCGUUCGGAUCUGCACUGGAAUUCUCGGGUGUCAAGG` is reported as -0.108.
